Experimental data from different studies.
Each numbered part is a random draw from the data of one study; scales do not carry over between parts. Changes are numbered by the printed parent chain.

Set 1 — technique: RNA Bind-n-Seq; form: RNA; medium: in vitro; tested at: 200 nM; notes: whole 134-nt RNA, ends assumed; added: 150 mM KCl; relative to: input library; direction: higher = stronger binding
Target: Fragile X messenger ribonucleoprotein 1, C-terminal low-complexity region (Fmr1, Mus musculus, UniProt P35922)
Oligonucleotide | log2 enrichment
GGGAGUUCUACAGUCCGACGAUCCCUCAAGUCCUGUGCUACACAUCGUAUGUACCGAAUCGGAAGGAAGGAAGGGAAAGUAUUAUGUUACGCCGUUCGGAUCUGCACUUCCAGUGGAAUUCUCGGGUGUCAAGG | 0.286
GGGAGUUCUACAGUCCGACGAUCUCCUCCCUGGCUUCAGCCAGUCCCUGACGCUGAGCACUGGCUUCCGAGUCAUCAAGAAGAAGCUGUACAGCUCGGAACAGCUGCUCAUUGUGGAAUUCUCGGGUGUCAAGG | -0.96
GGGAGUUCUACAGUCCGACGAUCAUGGACUUGCACAUGAUGAACUGUGAACUUCUAGCCACAUGUAGUGCCCUUGGGUACUUGGAGGGAGACACUUACCAUAAGGAACCAGAUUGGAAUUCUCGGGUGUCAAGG | -0.925
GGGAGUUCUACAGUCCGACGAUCCACAGACAACACGCACCCACACAGACACAGAGGGAAGGGGUCGGGAUGGGGACAGGGUGCACAGCAGGGCGGGGUAGGACCCCAGCCCCUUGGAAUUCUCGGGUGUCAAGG | 1.21
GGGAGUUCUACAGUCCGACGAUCUUGUGGUAUUUUAUUUACUUAUUUUUUUAAAUCUUCCAUUACAGCCAUGCCUUUCUUGGACAUCCAGAAAAGGUUCGGCCUUAACAUAGAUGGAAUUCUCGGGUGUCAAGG | -0.0435
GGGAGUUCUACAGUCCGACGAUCGUCCUGUGCUACACAUCGUAUGUACCGAAUCAAAUUUUUAAACCCCCCCAAACCCAAAAAAGUAUUAUGUUACGCCGUUCGGAUCUGCACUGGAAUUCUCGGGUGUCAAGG | -0.0981
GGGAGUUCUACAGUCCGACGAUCCCUGUGCUACACAUCGUAUGUACCGAAUCGGGGUUUUUUUGGGGAAAGGGGUUUUUGGGGAAAGUAUUAUGUUACGCCGUUCGGAUCUGCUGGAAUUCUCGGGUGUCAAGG | 0.304
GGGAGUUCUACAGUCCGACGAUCGCAGGAAGUAAAAACAAAUGGACAUGCUUCGGAUAGUGGCAGGGGUGGGGGUUGCUAAGGAAAGGGUGGGAUGGGAGUGGGUAAAGAGUUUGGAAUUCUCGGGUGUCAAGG | 0.158
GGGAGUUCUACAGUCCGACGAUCACCAUGCAGGUGGGCAUCUUUGGGAAGUGGGGCAAGGGGGGGAUAGGGAGGGGGGUAACUCUUUGGGAACAGGUGGUCCCAGGUCGUUUCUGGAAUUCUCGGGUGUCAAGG | 0.775

Set 2 — target: CCNA1, cyclin fold, Cln2 fusion (human); technique: yeast growth competition, sequencing; medium: yeast; notes: weak parent motif; relative to: not given; direction: higher = stronger binding
Starting sequence: PKN2 docking peptide (human); VSAVQKLDFSDTM; partner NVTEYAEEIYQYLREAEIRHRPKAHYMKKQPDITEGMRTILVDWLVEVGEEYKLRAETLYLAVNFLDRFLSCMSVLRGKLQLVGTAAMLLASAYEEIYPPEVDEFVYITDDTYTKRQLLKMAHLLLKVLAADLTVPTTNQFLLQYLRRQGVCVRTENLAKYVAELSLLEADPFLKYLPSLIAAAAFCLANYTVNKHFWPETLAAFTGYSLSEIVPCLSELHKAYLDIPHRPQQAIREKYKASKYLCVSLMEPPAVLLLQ
Substitution | normalised enrichment score
ASAVQKLDFSDTM [V1A] | 0.158
VSAVQKLDFNDTM [S10N] | 0.0404
VSAVQKLDFSDTR [M13R] | 0.147
VSAVQKLDFTDTM [S10T] | 0.139
VSAVQKVDFSDTM [L7V] | 0.151
VSAVQKIDFSDTM [L7I] | -0.0571
VSAVQKQDFSDTM [L7Q] | 0.0601
VSAVQKLDFSDNM [T12N] | 0.11
VSAVQKLDFSDTH [M13H] | 0.106
VSASQKLDFSDTM [V4S] | -0.203

Set 3 — target: CEP164, C-terminal peptide (human); technique: DHFR complementation, deep sequencing; medium: yeast; relative to: wild type; direction: higher = weaker binding
Notes: single substitutions, model-inferred values
Starting sequence: PDZK1, PDZ domain 2 (human); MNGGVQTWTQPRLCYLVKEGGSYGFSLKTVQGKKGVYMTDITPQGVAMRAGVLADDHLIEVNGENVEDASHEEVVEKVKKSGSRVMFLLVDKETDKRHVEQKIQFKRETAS; partner HNRVKVYRF
Substitution | binding free energy change
G3Q | -0.109 kcal/mol
V90M | -0.0846 kcal/mol
K106T | -0.16 kcal/mol
V66K | 1.38 kcal/mol
K34D | 0.318 kcal/mol
V66Q | 0.343 kcal/mol
V90T | -0.132 kcal/mol
Q104Y | -0.12 kcal/mol
M86F | -0.0187 kcal/mol
F25V | 1.3 kcal/mol
K18N | 0.321 kcal/mol
P43T | 0.336 kcal/mol
V75G | 1.17 kcal/mol
H71Q | 0.365 kcal/mol
V99G | -0.14 kcal/mol
K18I | 0.829 kcal/mol
S111H | 0.022 kcal/mol

Other studies, line by line
Molecule | target | assay | system | setting | how to read | quantity | result
PhoQ, residues 284 288 289 292 302 303 AGGCYF | PhoP, residues 12 14 15 18 19 DLLYY (Escherichia coli, UniProt P23836) | Sort-seq, item: YFP reporter | E. coli | PhoQ-PhoP variant library, added: 10 µM Mg2+ | relative to: high Mg2+ state, higher = stronger signaling | fold induction | 2.74
